{"data": "Experimental data pooled from the literature", "ETS1 K379A": "Protein C-ets-1 (ETS1, Homo sapiens, UniProt P14921, residues 1-441, K379A, full length assumed)", "note": "Protocols differ between the studies behind these lines.", "UniProt P14921, sequence (whole entry, unmodified, looked up)": "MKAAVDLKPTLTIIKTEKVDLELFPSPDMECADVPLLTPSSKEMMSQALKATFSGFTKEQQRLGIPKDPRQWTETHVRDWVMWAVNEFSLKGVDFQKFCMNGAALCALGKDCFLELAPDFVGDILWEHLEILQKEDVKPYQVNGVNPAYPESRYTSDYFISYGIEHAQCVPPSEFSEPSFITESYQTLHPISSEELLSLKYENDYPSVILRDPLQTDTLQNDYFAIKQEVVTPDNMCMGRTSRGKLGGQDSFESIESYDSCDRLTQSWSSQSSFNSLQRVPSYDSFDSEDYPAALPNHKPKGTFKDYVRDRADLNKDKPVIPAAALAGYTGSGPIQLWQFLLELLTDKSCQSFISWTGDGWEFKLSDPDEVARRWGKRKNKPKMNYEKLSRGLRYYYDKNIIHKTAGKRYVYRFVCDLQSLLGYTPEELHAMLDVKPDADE"}
{"Molecule": "GGTTATTA", "target": "ETS1 K379A", "test": "protein-binding microarray", "test system": "double-stranded DNA, one strand shown, in vitro", "setting": "not given, k-mer, scored over probes, only values ≥0.25", "how to read": "higher = stronger binding", "endpoint": "E-score", "value": 0.283}
{"Molecule": "AACGAGTG", "target": "Histone acetyltransferase KAT6A, winged helix 2, GST fusion (KAT6A, Homo sapiens, UniProt Q92794, residues 85-181)", "test": "protein binding microarray", "test system": "double-stranded DNA, one strand shown, in vitro", "setting": "not given, 8-mer, flanks averaged, mean of 2 arrays, mostly near background", "how to read": "relative to: not given, higher = stronger binding", "endpoint": "E-score", "value": -0.144}
{"Molecule": "AGATGGTC", "target": "Sal-like protein 4, full length isoform A (SALL4, Homo sapiens, UniProt Q9UJQ4, residues 1-1053)", "test": "universal PBM", "test system": "double-stranded DNA, one strand shown, in vitro", "setting": "600 nM, 8-mer, flanks averaged, mean of replicates", "how to read": "higher = stronger binding", "endpoint": "E-score", "value": -0.202}
{"Molecule": "CGGTTAGA", "target": "ETS1 K379A", "test": "protein-binding microarray", "test system": "double-stranded DNA, one strand shown, in vitro", "setting": "not given, k-mer, scored over probes, only values ≥0.25", "how to read": "higher = stronger binding", "endpoint": "E-score", "value": 0.305}
{"Molecule": "ATTTCTGA", "target": "Sal-like protein 4, full length isoform B (SALL4, Homo sapiens, UniProt Q9UJQ4-2, residues 1-616)", "test": "universal PBM", "test system": "double-stranded DNA, one strand shown, in vitro", "setting": "not given, 8-mer, flanks averaged, mean of replicates", "how to read": "higher = stronger binding", "endpoint": "E-score", "value": 0.0961}
{"Molecule": "PhoQ, residues 284 288 289 292 302 303 SNSSNI", "target": "PhoP, residues 12 14 15 18 19 NMSFL (Escherichia coli, UniProt P23836)", "test": "Sort-seq, item: YFP reporter", "test system": "E. coli", "setting": "PhoQ-PhoP variant library, with: 10 µM Mg2+", "how to read": "relative to: high Mg2+ state, higher = stronger signaling", "endpoint": "fold induction", "value": 12.4}
{"Molecule": "GGGAGUUCUACAGUCCGACGAUCACACCCCUCCCCGCACUGUGAAGUUCCCCUGACCGCCCUCCUGGUUCACAAAGAGCAUUAAGAAAGCUGCGGUGGUCUGAGCAACAUAGCCCAAAGGGCUGAGCCUCCUGUGGAAUUCUCGGGUGCCAA", "target": "RNA binding protein fox-1 homolog 2, RRM domain, GST-SBP tag (RBFOX2, Homo sapiens, UniProt O43251-10, residues 100-194)", "test": "RNA Bind-n-Seq", "test system": "RNA, in vitro", "setting": "365 nM, natural RNA segment, single round, ends assumed", "how to read": "relative to: no-protein control, higher = stronger binding", "endpoint": "RBNS enrichment (R)", "value": 0.474}
{"Molecule": "ACCTACCC", "target": "Histone acetyltransferase KAT6A, both winged helices, GST fusion (KAT6A, Homo sapiens, UniProt Q92794, residues 1-181)", "test": "protein binding microarray", "test system": "double-stranded DNA, one strand shown, in vitro", "setting": "not given, 8-mer, flanks averaged, mean of 2 arrays, mostly near background", "how to read": "relative to: not given, higher = stronger binding", "endpoint": "E-score", "value": -0.114}
{"note": "Excerpt of the above:"}
{"Molecule": "ATTTCTGA", "target": "Sal-like protein 4, full length isoform B (SALL4, Homo sapiens, UniProt Q9UJQ4-2, residues 1-616)", "test": "universal PBM", "test system": "double-stranded DNA, one strand shown, in vitro", "setting": "not given, 8-mer, flanks averaged, mean of replicates", "how to read": "higher = stronger binding", "endpoint": "E-score", "value": 0.0961}
